Results from different studies.
Numbered parts are unrelated; each lists some results of a single study. “And” joins repeats or separate records; there may be more than shown.
UniProt P00519, sequence (whole entry, unmodified, looked up): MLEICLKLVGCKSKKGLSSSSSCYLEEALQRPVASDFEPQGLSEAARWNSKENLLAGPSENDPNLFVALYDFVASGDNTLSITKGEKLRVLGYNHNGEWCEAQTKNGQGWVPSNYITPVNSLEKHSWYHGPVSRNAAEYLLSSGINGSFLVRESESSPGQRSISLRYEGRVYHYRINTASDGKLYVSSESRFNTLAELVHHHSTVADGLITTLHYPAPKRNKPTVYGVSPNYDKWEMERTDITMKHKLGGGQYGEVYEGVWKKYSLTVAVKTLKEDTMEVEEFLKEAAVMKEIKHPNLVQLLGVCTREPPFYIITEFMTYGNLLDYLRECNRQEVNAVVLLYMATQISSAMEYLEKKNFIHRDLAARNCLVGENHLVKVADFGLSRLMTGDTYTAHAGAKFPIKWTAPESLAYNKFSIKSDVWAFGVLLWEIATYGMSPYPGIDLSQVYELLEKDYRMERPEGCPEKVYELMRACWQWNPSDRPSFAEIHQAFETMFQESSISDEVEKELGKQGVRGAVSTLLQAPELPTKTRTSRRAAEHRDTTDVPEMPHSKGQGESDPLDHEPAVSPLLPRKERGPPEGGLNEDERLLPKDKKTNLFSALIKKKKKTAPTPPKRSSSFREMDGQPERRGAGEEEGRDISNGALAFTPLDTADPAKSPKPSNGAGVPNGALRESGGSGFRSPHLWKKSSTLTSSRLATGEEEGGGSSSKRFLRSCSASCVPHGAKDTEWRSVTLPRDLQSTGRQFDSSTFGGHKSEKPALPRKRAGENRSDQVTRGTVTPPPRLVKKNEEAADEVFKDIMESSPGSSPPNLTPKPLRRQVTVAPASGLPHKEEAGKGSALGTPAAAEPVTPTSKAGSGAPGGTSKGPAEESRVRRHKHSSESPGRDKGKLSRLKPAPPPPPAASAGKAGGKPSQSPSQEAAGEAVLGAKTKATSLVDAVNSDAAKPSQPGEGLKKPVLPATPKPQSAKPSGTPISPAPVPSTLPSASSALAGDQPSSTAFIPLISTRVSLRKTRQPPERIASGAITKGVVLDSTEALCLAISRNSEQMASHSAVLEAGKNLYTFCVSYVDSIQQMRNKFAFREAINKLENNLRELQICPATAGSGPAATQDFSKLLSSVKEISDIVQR
UniProt P43403, sequence (whole entry, looked up): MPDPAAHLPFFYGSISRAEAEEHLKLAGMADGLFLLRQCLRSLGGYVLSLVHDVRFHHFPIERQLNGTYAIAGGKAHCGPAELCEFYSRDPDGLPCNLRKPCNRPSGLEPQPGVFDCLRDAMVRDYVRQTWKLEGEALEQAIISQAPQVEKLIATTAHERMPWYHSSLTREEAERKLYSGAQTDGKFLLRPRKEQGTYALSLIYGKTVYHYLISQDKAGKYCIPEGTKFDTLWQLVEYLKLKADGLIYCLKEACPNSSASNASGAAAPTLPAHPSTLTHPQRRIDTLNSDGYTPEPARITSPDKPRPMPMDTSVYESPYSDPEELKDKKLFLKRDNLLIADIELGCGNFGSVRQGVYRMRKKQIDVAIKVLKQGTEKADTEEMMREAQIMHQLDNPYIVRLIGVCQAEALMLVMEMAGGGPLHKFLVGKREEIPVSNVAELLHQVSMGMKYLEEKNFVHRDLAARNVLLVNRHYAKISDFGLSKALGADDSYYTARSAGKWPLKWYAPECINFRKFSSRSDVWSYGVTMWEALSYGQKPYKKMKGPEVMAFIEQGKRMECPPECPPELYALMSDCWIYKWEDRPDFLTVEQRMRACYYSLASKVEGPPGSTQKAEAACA
UniProt O95835, sequence (whole entry, looked up): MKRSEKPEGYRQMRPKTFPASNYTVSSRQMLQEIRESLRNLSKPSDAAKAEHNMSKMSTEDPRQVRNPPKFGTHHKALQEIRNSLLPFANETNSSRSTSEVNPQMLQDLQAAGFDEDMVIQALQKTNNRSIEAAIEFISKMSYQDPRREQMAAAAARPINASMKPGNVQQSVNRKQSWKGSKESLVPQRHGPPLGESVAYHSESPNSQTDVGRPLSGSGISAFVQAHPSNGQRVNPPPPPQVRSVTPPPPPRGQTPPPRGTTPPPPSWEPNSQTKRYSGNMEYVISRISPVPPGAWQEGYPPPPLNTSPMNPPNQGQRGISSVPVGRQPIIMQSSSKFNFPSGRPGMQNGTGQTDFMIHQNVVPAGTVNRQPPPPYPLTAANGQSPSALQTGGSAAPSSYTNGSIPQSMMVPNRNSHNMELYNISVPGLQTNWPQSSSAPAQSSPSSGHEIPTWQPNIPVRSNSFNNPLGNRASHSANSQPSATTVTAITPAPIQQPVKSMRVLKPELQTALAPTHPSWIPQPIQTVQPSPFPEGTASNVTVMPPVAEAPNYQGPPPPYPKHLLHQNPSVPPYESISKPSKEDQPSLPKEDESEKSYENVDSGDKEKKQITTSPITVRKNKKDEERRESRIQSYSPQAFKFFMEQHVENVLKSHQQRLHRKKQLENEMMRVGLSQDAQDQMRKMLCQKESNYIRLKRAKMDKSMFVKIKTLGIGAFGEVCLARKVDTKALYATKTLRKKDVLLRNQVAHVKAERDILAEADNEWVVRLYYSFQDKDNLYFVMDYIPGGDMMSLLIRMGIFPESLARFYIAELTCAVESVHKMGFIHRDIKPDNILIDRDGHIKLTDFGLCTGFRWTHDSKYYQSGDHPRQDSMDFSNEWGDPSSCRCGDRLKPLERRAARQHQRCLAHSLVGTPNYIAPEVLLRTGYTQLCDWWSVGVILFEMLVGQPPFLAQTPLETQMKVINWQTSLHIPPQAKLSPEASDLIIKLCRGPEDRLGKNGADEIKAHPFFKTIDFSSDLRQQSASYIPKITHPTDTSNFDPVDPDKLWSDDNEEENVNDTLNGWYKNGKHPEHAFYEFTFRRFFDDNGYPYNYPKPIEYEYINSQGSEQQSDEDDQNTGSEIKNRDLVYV
UniProt P51955, sequence (whole entry, looked up): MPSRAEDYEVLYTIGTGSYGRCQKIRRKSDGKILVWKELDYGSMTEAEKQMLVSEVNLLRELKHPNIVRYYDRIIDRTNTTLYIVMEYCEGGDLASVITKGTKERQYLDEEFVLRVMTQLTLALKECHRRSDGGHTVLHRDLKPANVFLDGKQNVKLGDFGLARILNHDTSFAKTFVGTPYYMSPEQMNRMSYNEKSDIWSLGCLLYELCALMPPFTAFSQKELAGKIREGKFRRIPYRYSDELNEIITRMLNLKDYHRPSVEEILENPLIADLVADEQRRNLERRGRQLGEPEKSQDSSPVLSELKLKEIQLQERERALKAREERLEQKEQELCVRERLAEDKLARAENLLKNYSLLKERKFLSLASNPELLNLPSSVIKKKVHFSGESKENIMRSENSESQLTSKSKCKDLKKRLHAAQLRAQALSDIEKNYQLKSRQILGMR
UniProt Q96D53, sequence (whole entry, looked up): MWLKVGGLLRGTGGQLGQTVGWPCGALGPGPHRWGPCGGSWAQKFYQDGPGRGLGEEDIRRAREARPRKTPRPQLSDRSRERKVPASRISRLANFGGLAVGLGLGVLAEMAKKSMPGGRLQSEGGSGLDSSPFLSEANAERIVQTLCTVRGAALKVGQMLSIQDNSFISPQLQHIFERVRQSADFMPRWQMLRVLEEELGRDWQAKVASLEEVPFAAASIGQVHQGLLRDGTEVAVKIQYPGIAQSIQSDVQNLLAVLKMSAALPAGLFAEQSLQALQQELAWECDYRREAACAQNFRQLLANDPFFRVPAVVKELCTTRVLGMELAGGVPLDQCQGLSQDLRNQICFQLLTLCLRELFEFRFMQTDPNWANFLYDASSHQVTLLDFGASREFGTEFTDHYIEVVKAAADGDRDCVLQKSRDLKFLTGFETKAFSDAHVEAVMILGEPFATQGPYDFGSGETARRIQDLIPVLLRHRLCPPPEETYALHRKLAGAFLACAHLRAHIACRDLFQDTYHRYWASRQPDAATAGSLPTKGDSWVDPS
UniProt Q9HAZ1, sequence (whole entry, looked up): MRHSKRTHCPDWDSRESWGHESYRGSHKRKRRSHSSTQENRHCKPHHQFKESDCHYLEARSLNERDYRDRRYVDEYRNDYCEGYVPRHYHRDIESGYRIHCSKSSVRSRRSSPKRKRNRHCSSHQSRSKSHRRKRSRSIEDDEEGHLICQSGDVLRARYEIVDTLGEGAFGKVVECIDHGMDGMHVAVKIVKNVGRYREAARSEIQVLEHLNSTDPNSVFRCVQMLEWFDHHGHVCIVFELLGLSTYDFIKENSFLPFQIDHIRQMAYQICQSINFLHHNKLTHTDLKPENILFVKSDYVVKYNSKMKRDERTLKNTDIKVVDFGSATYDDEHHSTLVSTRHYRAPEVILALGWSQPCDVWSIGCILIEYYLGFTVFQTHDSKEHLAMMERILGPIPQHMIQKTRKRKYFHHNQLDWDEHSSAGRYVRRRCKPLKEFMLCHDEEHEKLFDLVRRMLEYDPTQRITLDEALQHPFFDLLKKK

Block 1 — effect on: RNA clamping; method: fluorescence polarization; tested at: concentration not given; setting: mean of two replicates; with: FAM-labelled poly r(AG)8 RNA
Target: Eukaryotic initiation factor 4A-III (Homo sapiens, UniProt P38919)
UniProt P38919, sequence (whole entry, looked up): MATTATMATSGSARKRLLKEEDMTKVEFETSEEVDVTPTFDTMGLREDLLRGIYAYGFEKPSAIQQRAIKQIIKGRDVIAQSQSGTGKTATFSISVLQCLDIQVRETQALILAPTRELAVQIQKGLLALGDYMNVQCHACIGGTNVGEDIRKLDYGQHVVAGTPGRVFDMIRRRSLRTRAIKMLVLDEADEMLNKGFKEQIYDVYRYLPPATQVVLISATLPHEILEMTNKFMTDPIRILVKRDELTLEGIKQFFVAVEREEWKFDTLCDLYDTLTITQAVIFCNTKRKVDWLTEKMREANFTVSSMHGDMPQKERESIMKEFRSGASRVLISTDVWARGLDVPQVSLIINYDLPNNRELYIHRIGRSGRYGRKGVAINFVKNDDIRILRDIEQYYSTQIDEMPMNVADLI
| SMILES | fluorescence polarization change [mP] |
| --- | --- |
| COC(=O)[C@H]1C(=O)[C@@]2(NC34C[C@H]5C[C@@H](C3)C[C@@H](C4)C5)c3c(OC)cc(OC)cc3O[C@@]2(c2ccc(OC)cc2)[C@@H]1c1ccccc1 | 1.4 |
| COc1ccc([C@]23[C@H](c4ccccc4)C[C@@H](O)[C@@]2(O)c2c(OC)cccc2N3C)cc1 | -1.3 |
| COC(=O)[C@H]1[C@@H](O)[C@@]2(O)c3c(OC)cccc3N(C)[C@@]2(c2ccc(Br)cc2)[C@@H]1c1ccccc1 | 1.7 |
| C=CCOc1nc(-c2ccccc2)nc2c1[C@@H](c1ccccc1)[C@]1(c3ccc(OC)cc3)Oc3cc(OC)cc(OC)c3[C@]21O | 4.1 |
| COCCN[C@@]12C(=O)[C@H](C(=O)N(C)C)[C@@H](c3ccccc3)[C@]1(c1ccc(OC)cc1)Oc1cc(OC)cc(OC)c12 | 0.8 |
| COC(=O)[C@@H]1[C@@H](c2ccccc2)[C@]2(c3ccc(OC)cc3)Oc3cc(OC)cc(OC)c3[C@@]23OC(Cc2ccccc2)=N[C@@]13O | 7.2 |
| COc1ccc([C@@]23Oc4cc(OC)cc(OC)c4[C@]2(O)[C@H](O)[C@H](C(=O)c2cc4ccccc4o2)[C@H]3c2ccccc2)cc1 | 8.2 |
| C#CCOc1ccc(-c2nc(OCC#C)c3c(n2)[C@@]2(O)c4c(OC)cc(OC)cc4O[C@@]2(c2ccc(OC)cc2)[C@@H]3c2ccccc2)cc1 | 2.1 |

Block 2 — cell line: mouse MPNST tumor cells; method: high-content nuclear imaging; measured: cell number; tested at: 10 µM; time: 12 h; setting: mean of 2 replicates; baseline: plate mean; direction: higher = more cells
| SMILES | nuclei count |
| --- | --- |
| NC(N)=NCC1COC2(CCCCC2)O1 (stereo not shown) | 1.96 z-score |
| CC(C)(C#N)c1cc(Cn2cncn2)cc(C(C)(C)C#N)c1 | 0.868 z-score and 1.36 z-score and -0.257 z-score |
| CCn1c(=O)[nH]c2ccccc21 | 0.637 z-score |
| Cc1noc(C)c1-c1cc(O)cc(C(O)c2ccccc2)c1 (stereo not shown) | -1.55 z-score |
| CC(C)CN(C[C@@H](O)[C@H](Cc1ccccc1)NC(=O)O[C@H]1CCOC1)S(=O)(=O)c1ccc(N)cc1 | 1.91 z-score and 0.492 z-score |
| Cc1cc(C)cc(NC(=O)Nc2ccc(OS(N)(=O)=O)cc2)c1 | 1.77 z-score |
| C#CCN(C)CCCOc1ccc(Cl)cc1Cl | 1.52 z-score |
| Cc1ccc([N+](=O)[O-])cc1S(=O)(=O)N(C)C | 1.42 z-score |

Block 3 — tested at: 1 µM
SMILES: Cc1ccc(NC(=O)c2ccnc(C(F)(F)F)c2)cc1-c1cc(OCCO)nc(N2CCOCC2)c1
| target | method | measured | baseline | remaining binding |
| --- | --- | --- | --- | --- |
| Serine/threonine-protein kinase Nek2 (NEK2, Homo sapiens, UniProt P51955) | competitive binding panel | – | vehicle | 97% |
| Tyrosine-protein kinase ZAP-70 (ZAP70, Homo sapiens, UniProt P43403) | competitive binding panel | – | vehicle | 100% |
| Tyrosine-protein kinase ABL1 (ABL1, Homo sapiens, UniProt P00519, Q252H) | competitive binding scan | – | – | 99% and 59% |
| Phosphatidylinositol 4,5-bisphosphate 3-kinase catalytic subunit alpha isoform (PIK3CA, Homo sapiens, UniProt P42336, H1047L) | competitive binding panel | – | vehicle | 98% |
| Atypical kinase COQ8B, mitochondrial (COQ8B, Homo sapiens, UniProt Q96D53) | competitive binding panel | ADCK4 | vehicle | 100% |
| Dual specificity protein kinase CLK4 (CLK4, Homo sapiens, UniProt Q9HAZ1) | competitive binding panel | – | vehicle | 100% |
| Leucine-rich repeat serine/threonine-protein kinase 2 (LRRK2, Homo sapiens, UniProt Q5S007, G2019S) | competitive binding panel | – | vehicle | 100% |
| Serine/threonine-protein kinase LATS1 (LATS1, Homo sapiens, UniProt O95835) | competitive binding panel | – | vehicle | 94% |

Mixed results
| Structure (SMILES) | target | effect on | method | tested at | measurement | value |
| --- | --- | --- | --- | --- | --- | --- |
| Cn1cncc1[C@](O)(COc1ccc(C#N)cc1-c1ccc(OC(F)(F)F)cc1)c1ccc(C#N)cc1 | Receptor-type tyrosine-protein kinase FLT3 (FLT3, Homo sapiens, UniProt P36888, N841I) | cell-free assay | competition with immobilised ligand | 1 µM | remaining binding | 91% |
